Earlier results that unrelated publications cite.
Compare with care: the assays were run in different laboratories.
Chain of UniProt Q8N752 (whole entry, looked up): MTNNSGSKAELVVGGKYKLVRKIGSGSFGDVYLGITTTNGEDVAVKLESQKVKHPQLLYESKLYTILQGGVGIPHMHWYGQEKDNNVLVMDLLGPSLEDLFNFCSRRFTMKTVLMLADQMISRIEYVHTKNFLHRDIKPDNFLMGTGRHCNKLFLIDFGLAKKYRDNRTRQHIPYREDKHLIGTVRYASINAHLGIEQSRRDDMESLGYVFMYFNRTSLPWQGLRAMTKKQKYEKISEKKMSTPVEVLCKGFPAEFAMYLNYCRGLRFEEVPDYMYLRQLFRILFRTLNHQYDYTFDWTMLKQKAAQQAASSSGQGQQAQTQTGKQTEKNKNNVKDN

CCCN(CCC)S(=O)(=O)c1ccc(C(=O)O)cc1 — oral clearance (human, plasma): 1.03 L/h
Cn1c(=O)oc2ccc(-c3ccc(C[C@@H](C#N)NC(=O)[C@@H]4CNCCCO4)cc3)cc21 — oral absorption (human; oral, dose not given, together with: food): no effect
Nc1cc(C(F)(F)F)c(-c2nc(N3CCOCC3)nc(N3CCOCC3)n2)cn1 — remaining activity (Casein kinase I isoform alpha-like (CSNK1A1L, Homo sapiens, UniProt Q8N752); enzyme activity; 10 µM; reference: untreated): 95%
O=C(O)[C@H]1/C(=C/CO)O[C@@H]2CC(=O)N21 — oral bioavailability range (human adults; oral): 31.4 to 98.8%
CC1(C)S[C@@H]2[C@H](NC(=O)[C@H](N)c3ccccc3)C(=O)N2[C@H]1C(=O)O — MIC (Acinetobacter baumannii; clinical isolate RKI-No_30/16): > 16 mg/L
Cc1cn([C@H]2C=C[C@@H](CO)O2)c(=O)[nH]c1=O — oral bioavailability (human; 4 mg/kg): > 80%
CNCc1cc(-c2ccccc2F)n(S(=O)(=O)c2cccnc2)c1 — oral clearance (CL/F) (human; oral): 115 L/h
C=CC(=O)N1C[C@H](Nc2ncnc3[nH]ccc23)CC[C@@H]1C — oral clearance (human, plasma; 200 mg): 65 L/h
CC(C)(C)c1cc(C(C)(C)C)c(NC(=O)c2c[nH]c3ccccc3c2=O)cc1O — oral clearance (human): 19 L/h
Nc1nc(=O)n([C@@H]2C=C[C@H](CO)O2)cc1F — oral bioavailability (human): 32%
CC(C)(CO)c1cc2cc(NC(=O)C3(c4ccc5c(c4)OC(F)(F)O5)CC3)c(F)cc2n1C[C@@H](O)CO — oral clearance (human): 1.39 L/h
CNC(C)C1CCC(N)C(OC2C(N)CC(N)C(OC3OCC(C)(O)C(NC)C3O)C2O)O1 (centres unmarked) — MIC (Acinetobacter baumannii; clinical isolate RKI-No_30/16): > 8 mg/L
Nc1ccn([C@H]2CO[C@@H](CO)S2)c(=O)n1 — oral bioavailability (human; 1600 mg): 65 to 80%
O=C1Nc2ccc(Cl)cc2[C@@](C#CC2CC2)(C(F)(F)F)O1 — oral clearance (CLpo) (human; Simcyp input parameter): 9.07 L/h
